# Published values collected from several papers.
# Protocols differ between the studies behind these lines.
# Organism: Pseudomonas aeruginosa
SMILES,test,system,setting,scale,MIC
CC1(C)S[C@@H]2[C@H](NC(=O)[C@H](N)c3ccccc3)C(=O)N2[C@H]1C(=O)O,,fpvB mutant,,,> 200 µg/mL
CC[C@H](C)[C@H](NC(=O)CNC(=O)[C@H](CC(=O)O)NC(=O)[C@H](CCCNC(=N)N)NC(=O)[C@@H](NC(=O)[C@H](CC(N)=O)NC(=O)[C@H](CCCNC(=N)N)NC(=O)CNC(=O)[C@@H](NC(=O)[C@H](CCCCN)NC(=O)[C@H](CCC(=O)O)NC(=O)[C@@H](NC(=O)[C@H](CCCCN)NC(=O)[C@H](CCCCN)NC(=O)[C@H](Cc1ccccc1)NC(=O)[C@@H](NC(=O)[C@H](CCCCN)NC(=O)[C@H](Cc1c[nH]c2ccccc12)NC(=O)[C@@H](N)CCCNC(=N)N)[C@@H](C)CC)[C@@H](C)CC)C(C)C)C(C)C)C(=O)N[C@H](C(=O)N[C@@H](CCCCN)C(=O)N[C@@H](C)C(N)=O)[C@@H](C)CC,,"KCCM 11328, Mueller-Hinton broth","16 h, 37 °C",growth inhibition over 99%,32 µM
CC[C@H](C)[C@H](N)C(=O)N[C@@H](CC(C)C)C(=O)NCC(=O)N[C@@H](CCCNC(=N)N)C(=O)N[C@H](C(=O)N[C@@H](Cc1c[nH]c2ccccc12)C(=O)N[C@@H](CCCCN)C(=O)NCC(=O)N[C@H](C(=O)N[C@@H](CCCCN)C(=O)N[C@@H](CC(=O)O)C(=O)N[C@H](C(=O)N[C@@H](CC(C)C)C(N)=O)[C@@H](C)CC)[C@@H](C)CC)[C@@H](C)CC,broth microdilution,"ATCC BAA-427, Mueller-Hinton broth","16 h, 37 °C",,25 µM
CC[C@H](C)[C@H](NC(=O)[C@H](CCCCN)NC(=O)[C@H](CCCCN)NC(=O)[C@H](CCCCN)NC(=O)[C@H](CCCCN)NC(=O)[C@H](CCCCN)NC(=O)[C@@H](N)CCCCN)C(=O)N[C@@H](CO)C(=O)N[C@@H](Cc1ccccc1)C(=O)N[C@@H](CC(C)C)C(=O)NCC(=O)N[C@@H](CO)C(=O)N[C@@H](CCCCN)C(=O)N[C@H](C(=O)N[C@H](C(=O)N[C@H](C(=O)N[C@@H](CC(C)C)C(=O)N[C@@H](CC(C)C)C(=O)N[C@@H](CCCCN)C(=O)N[C@@H](CCCNC(=N)N)C(N)=O)C(C)C)C(C)C)C(C)C,broth microdilution,ATCC 27853,highest value reported,,16 µM
CC1(C)SC2C(NC(=O)C(NC(=O)C3=C(O)CN(c4ccccc4)C3=O)c3ccccc3)C(=O)N2C1C(=O)O (centres unmarked),,pvdS mutant,,,50 µg/mL
CS(=O)(=O)Nc1ncn(-c2cc(F)c(COc3ccc(OS(=O)(=O)F)cc3)c(F)c2)n1,,,,,> 50 µM
CC[C@H](C)[C@H](NC(=O)[C@H](CC(C)C)NC(=O)[C@H](CCCCN)NC(=O)[C@@H](NC(=O)[C@H](C)NC(=O)[C@H](CCC(=O)O)NC(=O)[C@H](Cc1c[nH]cn1)NC(=O)[C@@H](NC(=O)[C@H](CCCCN)NC(=O)[C@H](CCC(N)=O)NC(=O)[C@H](Cc1ccccc1)NC(=O)[C@@H](NC(=O)[C@H](CCCCN)NC(=O)[C@@H](N)CCCCN)C(C)C)[C@@H](C)CC)[C@@H](C)CC)C(N)=O,broth microdilution,4891 resistant,"18 h, 37 °C",,32 µM
CC[C@H](C)[C@H](NC(=O)[C@H](Cc1c[nH]c2ccccc12)NC(=O)[C@@H](NC(=O)[C@H](Cc1c[nH]c2ccccc12)NC(=O)[C@@H]1CCCN1C(=O)[C@@H](NC(=O)[C@H](C)N)[C@@H](C)CC)[C@@H](C)CC)C(=O)N[C@@H](Cc1c[nH]c2ccccc12)C(=O)N[C@@H](CCCNC(=N)N)C(=O)N[C@@H](CC(C)C)C(=O)N[C@@H](CC(C)C)C(=O)N[C@@H](CCCNC(=N)N)C(=O)N[C@@H](CCCCN)C(=O)NCC(N)=O,broth microdilution,PAO1,"18 h, 37 °C",,15 µM
CC[C@H](C)[C@H](NC(=O)[C@H](CC(C)C)NC(=O)[C@H](CCCNC(=N)N)NC(=O)[C@@H](N)CCCNC(=N)N)C(=O)N[C@@H](CCCNC(=N)N)C(=O)N[C@@H](CCCCN)C(=O)N[C@@H](CC(C)C)C(=O)N[C@@H](CCCCN)C(=O)NCC(=O)N[C@@H](CC(C)C)C(=O)N[C@@H](CCCCN)C(=O)N[C@@H](CCCCN)C(=O)N[C@@H](Cc1ccc(O)cc1)C(=O)N[C@@H](CC(C)C)C(=O)N[C@@H](Cc1ccc(O)cc1)C(=O)N[C@@H](Cc1ccccc1)C(=O)N[C@@H](CCCCN)C(=O)N[C@@H](CC(C)C)C(=O)N[C@@H](CCC(N)=O)C(=O)N[C@@H](CC(C)C)C(=O)N[C@@H](CC(C)C)C(=O)N[C@@H](CCCCN)C(=O)N[C@@H](CCCCN)C(N)=O,,"KCTC 1637, Mueller-Hinton broth",24 h,,4 µM
CC[C@H](C)[C@H](NC(=O)CNC(=O)[C@H](CC(=O)O)NC(=O)[C@H](CCCNC(=N)N)NC(=O)[C@@H](NC(=O)[C@H](CC(N)=O)NC(=O)[C@H](CCCNC(=N)N)NC(=O)CNC(=O)[C@@H](NC(=O)[C@H](CCCCN)NC(=O)[C@H](CCC(=O)O)NC(=O)[C@@H](NC(=O)[C@H](CCCCN)NC(=O)[C@H](CCCCN)NC(=O)[C@H](Cc1ccccc1)NC(=O)[C@@H](NC(=O)[C@H](CCCCN)NC(=O)[C@H](Cc1c[nH]c2ccccc12)NC(=O)[C@@H](N)CCCNC(=N)N)[C@@H](C)CC)[C@@H](C)CC)C(C)C)C(C)C)C(=O)N[C@H](C(=O)N[C@@H](CCCCN)C(=O)N[C@@H](C)C(=O)NCC(=O)NCC(=O)N[C@@H](C)C(=O)N[C@H](C(=O)N[C@@H](C)C(=O)N[C@H](C(=O)N[C@H](C(=O)NCC(=O)N[C@@H](CCC(N)=O)C(=O)N[C@@H](C)C(=O)N[C@@H](C)C(=O)N[C@H](C(=O)N[C@H](C(=O)N[C@H](C(=O)N[C@@H](CCCCN)C(N)=O)C(C)C)C(C)C)[C@@H](C)O)C(C)C)C(C)C)C(C)C)[C@@H](C)CC,,"KCCM 11328, Mueller-Hinton broth","16 h, 37 °C",growth inhibition over 99%,4 µM
N=C(N)NCCC[C@H](NC(=O)[C@H](Cc1c[nH]c2ccccc12)NC(=O)[C@@H](N)CCCNC(=N)N)C(=O)N[C@@H](Cc1c[nH]c2ccccc12)C(=O)N[C@@H](CCC(N)=O)C(=O)N[C@@H](Cc1ccccc1)C(=O)N[C@@H](CCC(N)=O)C(=O)N[C@@H](Cc1ccccc1)C(=O)N[C@@H](CCCCN)C(N)=O,"broth microdilution, optical density",,,,39 µM
CN1C(=O)Cc2ccc(F)c(CCNC[C@H]3CN(c4ccc5c(n4)NC(=O)CO5)C(=O)O3)c21,,ATCC 27853,,,1 µg/mL
CC(C)(C)OCC1NC(=O)C(C(=O)NC(C(=O)NC2C(=O)N3C2SC(C)(C)C3C(=O)O)c2ccccc2)=C1O (centres unmarked),broth microdilution,TonB-dependent receptor mutant,PA two-allele library,,25 µg/mL
CC[C@H](C)[C@H](NC(=O)CN)C(=O)NCC(=O)N[C@@H](CCCCN)C(=O)N[C@@H](Cc1ccccc1)C(=O)N[C@@H](CC(C)C)C(=O)N[C@@H](CCCCN)C(=O)N[C@@H](CCCCN)C(=O)N[C@@H](C)C(=O)N[C@@H](CCCCN)C(=O)N[C@@H](CCCCN)C(=O)N[C@@H](Cc1ccccc1)C(=O)NCC(=O)N[C@@H](CCCCN)C(=O)N[C@@H](C)C(=O)N[C@@H](Cc1ccccc1)C(=O)N[C@H](C(=O)N[C@@H](CCCCN)C(=O)N[C@H](C(=O)N[C@@H](CC(C)C)C(=O)N[C@@H](CCCCN)C(=O)N[C@@H](CCCCN)C(N)=O)[C@@H](C)CC)C(C)C,broth dilution,ATCC 27853,,,25 µM
CC(C)C1NC(=O)C(C(=O)NC(C(=O)NC2C(=O)N3C2SC(C)(C)C3C(=O)O)c2ccccc2)=C1O (centres unmarked),,pqsE mutant,,,100 µg/mL
CC[C@H](C)[C@H](NC(=O)[C@H](CCCCN)NC(=O)[C@@H]1CCCN1C(=O)[C@H](CCCNC(=N)N)NC(=O)[C@H](Cc1ccc(O)cc1)NC(=O)[C@H](CCCNC(=N)N)NC(=O)[C@H](CCCNC(=N)N)NC(=O)[C@@H](NC(=O)[C@H](CCCNC(=N)N)NC(=O)[C@H](CCCNC(=N)N)NC(=O)[C@H](CC(C)C)NC(=O)[C@H](Cc1ccccc1)NC(=O)[C@H](CCCNC(=N)N)NC(=O)[C@H](CO)NC(=O)[C@H](Cc1ccccc1)NC(=O)[C@@H](N)CCCNC(=N)N)C(C)C)C(=O)N[C@@H](CO)C(=O)N[C@@H](Cc1ccccc1)C(=O)N[C@@H](CC(N)=O)C(=O)N[C@@H](CC(C)C)C(=O)N[C@@H](CCC(=O)O)C(=O)N1CCC[C@H]1C(=O)N[C@@H](Cc1ccccc1)C(=O)N[C@@H](Cc1ccccc1)C(=O)N[C@@H](CCCCN)C(=O)N[C@@H](Cc1ccccc1)C(=O)O,broth microdilution,"ATCC 27853, Mueller-Hinton broth","16 to 20 h, 37 °C",,2.54 µM
CC(C)CC1NC(=O)C(C(=O)NC(C(=O)NC2C(=O)N3C2SC(C)(C)C3C(=O)O)c2ccccc2)=C1O (centres unmarked),,fpvA mutant,,,25 µg/mL
CC[C@H](C)CCCCC(=O)N[C@@H](CCN)C(=O)N[C@H](C(=O)N[C@@H](CCN)C(=O)N[C@H]1CCNC(=O)[C@H]([C@@H](C)O)NC(=O)[C@H](CCN)NC(=O)[C@H](CCN)NC(=O)[C@H](CC(C)C)NC(=O)[C@@H](CC(C)C)NC(=O)[C@H](CCN)NC1=O)[C@@H](C)O,broth microdilution,ATCC 27853,,,0.5 µg/mL
CC1NC(=O)C(C(=O)NC(C(=O)NC2C(=O)N3C2SC(C)(C)C3C(=O)O)c2ccccc2)=C1O (centres unmarked),broth microdilution,TonB-dependent receptor mutant,PA two-allele library,,25 µg/mL
CC[C@H](C)CCCCC(=O)N[C@@H](CCN)C(=O)N[C@H](C(=O)N[C@@H](CCN)C(=O)N[C@H]1CCNC(=O)[C@H]([C@@H](C)O)NC(=O)[C@H](CCN)NC(=O)[C@H](CCN)NC(=O)[C@H](CC(C)C)NC(=O)[C@@H](Cc2ccccc2)NC(=O)[C@H](CCN)NC1=O)[C@@H](C)O,,ATCC 27853,24 h,,< 1 µM

# A few entries again:
SMILES,test,system,setting,scale,MIC
CC1(C)SC2C(NC(=O)C(NC(=O)C3=C(O)CN(c4ccccc4)C3=O)c3ccccc3)C(=O)N2C1C(=O)O (centres unmarked),,pvdS mutant,,,50 µg/mL
CS(=O)(=O)Nc1ncn(-c2cc(F)c(COc3ccc(OS(=O)(=O)F)cc3)c(F)c2)n1,,,,,> 50 µM
